{"data": "Results collected from several papers", "organism": "Acinetobacter baumannii"}
{"Compound": "CN[C@@H]1[C@H](O)[C@H](NC)[C@H]2O[C@]3(O)[C@H](O[C@@H]2[C@H]1O)O[C@H](C)C[C@H]3NC(=O)Cc1ccccn1", "test": "microbial growth, broth dilution", "system": "ATCC19606", "MIC": "> 200 µg/mL"}
{"Compound": "CC[C@H](C)[C@H](NC(=O)[C@@H](CCCNC(=N)N)NC(=O)[C@H](CCCNC(=N)N)NC(=O)[C@H](CC(N)=O)NC(=O)[C@H](Cc1c[nH]c2ccccc12)NC(=O)[C@H](CCCNC(=N)N)NC(=O)[C@@H]1CCCN1C(=O)[C@H](CCCNC(=N)N)NC(=O)[C@@H]1CCCN1C(=O)[C@H](CC(C)C)NC(=O)[C@H](Cc1ccc(O)cc1)NC(=O)[C@@H]1CCCN1C(=O)[C@@H]1CCCN1C(=O)[C@H](CCCCN)NC(=O)[C@H](CC(=O)O)NC(=O)[C@@H](N)C(C)C)C(=O)N[C@@H](Cc1ccc(O)cc1)C(=O)N[C@@H](CC(N)=O)C(=O)N[C@H](CCCNC(=N)N)C(N)=O", "test": "broth microdilution", "system": "DSM 30008", "setting": "18 h, 37 °C, 25% MHB2", "MIC": "32 µg/mL"}
{"Compound": "CC(=CC(C)CCCCC(=O)O)C1OC2C=CC1OC(=O)C=CC=CC=CC1OC3CC1OC(C=CCC1OC(CC(O)C1C)C(O)C(O)C=CCCC=CC2)C3C (stereo not drawn)", "test": "microbial growth", "system": "DSM30008", "MIC": "> 20 µM"}
{"Compound": "CC[C@H](C)[C@H](NC(=O)[C@@H](CCCNC(=N)N)NC(=O)[C@H](CCCNC(=N)N)NC(=O)[C@@H]1CCCN1C(=O)[C@@H]1CCCN1C(=O)[C@H](Cc1c[nH]cn1)NC(=O)[C@@H]1CCCN1C(=O)[C@H](CCCNC(=N)N)NC(=O)[C@@H]1CCCN1C(=O)[C@H](CC(C)C)NC(=O)[C@H](Cc1ccc(O)cc1)NC(=O)[C@@H]1CCCN1C(=O)[C@@H]1CCCN1C(=O)[C@H](CCCCN)NC(=O)[C@H](CC(=O)O)NC(=O)[C@@H](N)C(C)C)C(=O)N[C@@H](Cc1ccc(O)cc1)C(=O)N[C@@H](CC(N)=O)C(=O)N[C@H](CCCNC(=N)N)C(N)=O", "test": "broth microdilution", "system": "DSM 30008", "setting": "18 h, 37 °C, 25% MHB2", "MIC": "32 µg/mL"}
{"Compound": "CCn1c(-c2ccc(Br)cc2)c(-c2ccc(Br)cc2)n(CC)c1=[Se]", "test": "broth microdilution", "system": "carbapenem-resistant", "setting": "24 h", "MIC": "> 40 µM"}
{"Compound": "CC(C)C[C@@H]1NC(=O)[C@@H](CC(C)C)NC(=O)[C@H](CCN)NC(=O)[C@@H](NC(=O)[C@H](CCN)NC(=O)[C@@H](NC(=O)CCOCCOCCOCCN=[N+]=[N-])[C@@H](C)O)CCNC(=O)[C@H]([C@@H](C)O)NC(=O)[C@H](CCN)NC(=O)[C@H](CCN)NC1=O", "test": "broth microdilution", "system": "BAA-747", "MIC": "> 111 µM"}
{"Compound": "CC[C@H](C)[C@H](NC(=O)[C@H](CCCNC(=N)N)NC(=O)[C@H](Cc1c[nH]c2ccccc12)NC(=O)[C@H](Cc1c[nH]c2ccccc12)NC(=O)[C@H](CCCNC(=N)N)NC(=O)[C@@H](N)CCCNC(=N)N)C(=O)N[C@@H](Cc1c[nH]c2ccccc12)C(N)=O", "setting": "with: MgSO4 10 µM", "MIC": "64 µg/mL"}
{"Compound": "CCCCCCCC(=O)N[C@@H](CCN)C(=O)N[C@H](C(=O)N[C@@H](CCN)C(=O)N[C@H]1CCNC(=O)[C@H]([C@@H](C)O)NC(=O)[C@H](CCN)NC(=O)[C@H](CCN)NC(=O)[C@H](Cc2ccccc2)NC(=O)[C@@H](CCCCCC)NC(=O)[C@H](CCN)NC1=O)[C@@H](C)O", "test": "broth microdilution", "system": "colistin-resistant isolates", "MIC": "0.5 to 1 µg/mL"}
{"Compound": "CCCCCCCC(=O)N[C@@H](CCN)C(=O)N[C@H](C(=O)N[C@@H](CCN)C(=O)N[C@H]1CCNC(=O)[C@H]([C@@H](C)O)NC(=O)[C@H](CCN)NC(=O)[C@H](CCN)NC(=O)[C@H](C)NC(=O)[C@@H](Cc2ccccc2)NC(=O)[C@H](CCN)NC1=O)[C@@H](C)O", "test": "CLSI broth microdilution", "system": "248-01-C.248, CAMHB", "setting": "20 h, 37 °C", "MIC": "0.5 µg/mL"}
{"Compound": "CC[C@H](C)[C@H](NC(=O)[C@@H](CCCNC(=N)N)NC(=O)[C@H](CCCNC(=N)N)NC(=O)[C@@H]1CCCN1C(=O)[C@@H]1CCCN1C(=O)[C@H](CCCNC(=N)N)NC(=O)[C@@H]1CCCN1C(=O)[C@H](CCCNC(=N)N)NC(=O)[C@@H]1CCCN1C(=O)[C@H](CC(C)C)NC(=O)[C@H](Cc1c[nH]cn1)NC(=O)[C@@H]1CCCN1C(=O)[C@@H]1CCCN1C(=O)[C@H](CCCCN)NC(=O)[C@H](CC(=O)O)NC(=O)[C@@H](N)C(C)C)C(=O)N[C@@H](Cc1ccc(O)cc1)C(=O)N[C@@H](CC(N)=O)C(=O)N[C@H](CCCNC(=N)N)C(N)=O", "test": "broth microdilution", "system": "DSM 30008", "setting": "18 h, 37 °C, 25% MHB2", "MIC": "32 µg/mL"}
{"Compound": "CC[C@H](C)[C@H](N)C(=O)N[C@@H](CCCNC(=N)N)C(=O)N[C@H](C(=O)N[C@@H](Cc1c[nH]c2ccccc12)C(=O)N[C@@H](CCCCN)C(=O)N[C@@H](CCCCN)C(=O)N[C@H](C(=O)N[C@H](C(=O)N[C@@H](CCCNC(=N)N)C(=O)N[C@@H](CCCCN)C(=O)N[C@@H](Cc1c[nH]c2ccccc12)C(=O)N[C@@H](CCCCN)C(=O)N[C@@H](C)C(=O)N[C@H](C(=O)N[C@@H](Cc1c[nH]c2ccccc12)C(=O)N[C@@H](Cc1c[nH]cn1)C(N)=O)[C@@H](C)CC)C(C)C)[C@@H](C)CC)C(C)C", "test": "broth dilution", "system": "ATCC 19606", "MIC": "< 3.1 µM"}
{"Compound": "CCCCCCCC(=O)N[C@@H](CCN)C(=O)N[C@H](C(=O)N[C@@H](CCN)C(=O)N[C@H]1CCNC(=O)[C@H]([C@@H](C)O)NC(=O)[C@H](CCN)NC(=O)[C@H](C)NC(=O)[C@H](CC(C)C)NC(=O)[C@@H](Cc2ccccc2)NC(=O)[C@H](CCN)NC1=O)[C@@H](C)O", "test": "CLSI broth microdilution", "system": "5075, CAMHB", "setting": "20 h, 37 °C", "MIC": "16 µg/mL"}
{"Compound": "CC[C@H](C)[C@H](NC(=O)[C@@H](CCCNC(=N)N)NC(=O)[C@H](CCCNC(=N)N)NC(=O)[C@@H]1CCCN1C(=O)[C@@H]1CCCN1C(=O)[C@H](Cc1c[nH]c2ccccc12)NC(=O)[C@@H]1CCCN1C(=O)[C@H](CCCNC(=N)N)NC(=O)[C@@H]1CCCN1C(=O)[C@H](CC(C)C)NC(=O)[C@H](Cc1ccc(O)cc1)NC(=O)[C@@H]1CCCN1C(=O)[C@@H]1CCCN1C(=O)[C@H](CCCCN)NC(=O)[C@H](CC(=O)O)NC(=O)[C@@H](N)C(C)C)C(=O)N[C@@H](Cc1ccc(O)cc1)C(=O)N[C@@H](CC(N)=O)C(=O)N[C@H](CCCNC(=N)N)C(N)=O", "test": "broth microdilution", "system": "DSM 30008", "setting": "18 h, 37 °C, 25% MHB2", "MIC": "16 µg/mL"}
{"Compound": "CN[C@H](CC(C)C)C(=O)N[C@H]1C(=O)N[C@@H](CC(N)=O)C(=O)N[C@H]2C(=O)N[C@H]3C(=O)N[C@H](C(=O)N[C@H](C(=O)NCC(N)=O)c4cc(O)cc(O)c4-c4cc3ccc4O)[C@H](O)c3ccc(c(Cl)c3)Oc3cc2cc(c3O[C@@H]2O[C@H](CO)[C@@H](O)[C@H](O)[C@H]2O[C@H]2C[C@](C)(NCc3ccc(OCc4cn(CC(=O)N[C@H](C(=O)N[C@@H](CCN)C(=O)N[C@H]5CCNC(=O)[C@H]([C@@H](C)O)NC(=O)[C@H](CCN)NC(=O)[C@H](CCN)NC(=O)[C@H](CC(C)C)NC(=O)[C@@H](CC(C)C)NC(=O)[C@H](CCN)NC5=O)[C@@H](C)O)nn4)c(OC)c3)[C@H](O)[C@H](C)O2)Oc2ccc(cc2Cl)[C@H]1O", "test": "broth microdilution", "system": "ATCC 17978, cation-adjusted Mueller-Hinton broth", "setting": "18 to 20 h, 37 °C, 0.002% polysorbate 80", "MIC": "128 µg/mL"}
{"Compound": "CCCCCCCC(=O)N[C@@H](CCN)C(=O)N[C@H](C(=O)N[C@@H](CCN)C(=O)N[C@H]1CCNC(=O)[C@H]([C@@H](C)O)NC(=O)[C@H](CCN)NC(=O)[C@H](CCN)NC(=O)[C@H](Cc2ccc(Br)cc2)NC(=O)[C@@H](CC(C)C)NC(=O)[C@H](CCN)NC1=O)[C@@H](C)O", "test": "broth microdilution", "system": "colistin-resistant isolates", "MIC": "1 to 2 µg/mL"}
{"Compound": "CC[C@H](C)[C@H](NC(=O)[C@H](CCCCN)NC(=O)[C@@H](NC(=O)[C@@H](NC(=O)[C@H](CC(C)C)NC(=O)[C@H](CCCNC(=N)N)NC(=O)[C@@H](NC(=O)[C@H](CC(C)C)NC(=O)[C@H](CCCNC(=N)N)NC(=O)CNC(=O)[C@H](Cc1ccccc1)NC(=O)[C@@H](N)CCCNC(=N)N)[C@@H](C)CC)[C@@H](C)CC)C(C)C)C(=O)N[C@@H](C)C(=O)N[C@@H](CCCNC(=N)N)C(=O)N[C@@H](CCCNC(=N)N)C(=O)N[C@@H](C)C(=O)N[C@@H](Cc1c[nH]cn1)C(=O)N[C@@H](CCCNC(=N)N)C(=O)N[C@@H](C)C(=O)N[C@@H](CCCNC(=N)N)C(=O)N[C@@H](CO)C(=O)N[C@@H](C)C(=O)N[C@H](C(=O)N[C@@H](CCCCN)C(=O)N[C@@H](C)C(=O)N[C@@H](C)C(=O)N[C@@H](CO)C(=O)N[C@@H](CC(N)=O)C(=O)N[C@H](C(=O)N[C@@H](C)C(=O)N[C@@H](C)C(=O)N[C@@H](CC(C)C)C(=O)N[C@@H](C)C(=O)N[C@@H](Cc1c[nH]cn1)C(=O)NCC(=O)N[C@@H](C)C(=O)O)C(C)C)C(C)C", "test": "bacterial growth, broth microdilution", "system": "cation-adjusted Mueller Hinton broth", "setting": "18 h, 37 °C", "MIC": "≤ 0.064 µM"}
{"Compound": "CCCCCCCC(=O)N[C@@H](CCN)C(=O)N[C@H](C(=O)N[C@@H](CCN)C(=O)N[C@H]1CCNC(=O)[C@H]([C@@H](C)O)NC(=O)[C@H](CCN)NC(=O)[C@H](CCN)NC(=O)[C@H](CC(C)C)NC(=O)[C@@H](C)NC(=O)[C@H](CCN)NC1=O)[C@@H](C)O", "test": "broth microdilution", "system": "ATCC 19606", "setting": "20 h, 37 °C", "MIC": "256 µg/mL"}
{"Compound": "CCCCCCCC(=O)N[C@@H](CCN)C(=O)N[C@H](C(=O)N[C@@H](CCN)C(=O)N[C@H]1CCNC(=O)[C@H]([C@@H](C)O)NC(=O)[C@H](CCN)NC(=O)[C@H](CCN)NC(=O)[C@H](CC(C)C)NC(=O)[C@@H](Cc2ccccc2F)NC(=O)[C@H](CCN)NC1=O)[C@@H](C)O", "test": "broth microdilution", "system": "colistin-resistant isolates", "MIC": "0.5 to 1 µg/mL"}
